Measurements of several laboratories.
Each numbered part is a random draw from the data of one study; scales do not carry over between parts.

Sample 1
Target: Ras GTPase-activating protein-binding protein 1, RRM domain (G3BP1, Homo sapiens, UniProt Q13283)
Sequence of UniProt Q13283 (whole entry, looked up): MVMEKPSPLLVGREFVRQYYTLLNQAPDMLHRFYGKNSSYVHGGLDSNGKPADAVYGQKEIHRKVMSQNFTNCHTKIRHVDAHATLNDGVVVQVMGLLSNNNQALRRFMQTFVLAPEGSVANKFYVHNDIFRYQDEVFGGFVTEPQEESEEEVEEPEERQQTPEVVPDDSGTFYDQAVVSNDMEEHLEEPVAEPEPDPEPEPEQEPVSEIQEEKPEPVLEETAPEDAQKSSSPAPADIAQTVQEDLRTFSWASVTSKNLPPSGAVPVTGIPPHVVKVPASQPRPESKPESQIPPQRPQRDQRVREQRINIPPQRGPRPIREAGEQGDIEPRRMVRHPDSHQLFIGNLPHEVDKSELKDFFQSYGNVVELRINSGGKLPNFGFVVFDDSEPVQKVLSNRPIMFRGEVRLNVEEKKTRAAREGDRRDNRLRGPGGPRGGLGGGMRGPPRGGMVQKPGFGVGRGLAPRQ
Method: RNA Bind-n-Seq
Molecule type: RNA
Matrix: in vitro
Tested at: 1 µM
Notes: whole 134-nt RNA, ends assumed
Added: 150 mM KCl
Baseline: input library
Direction: higher = stronger binding
Quantity: log2 enrichment
GGGAGUUCUACAGUCCGACGAUCCACAGACAACACGCACCCACACAGACACAGAGGGAAGGGGUUGGGAUGGGGACAGGGUGCACAGCAGGCCGGGGUAGGACCCCAGCCCCUUGGAAUUCUCGGGUGUCAAGG: -0.218
GGGAGUUCUACAGUCCGACGAUCCUGUGCUACACAUCGUAUGUACCGAAUCGGGGAAAAAAAGGGGAAAAAAAGGGAAAAAAAGGAAAGUAUUAUGUUACGCCGUUCGGAUCUUGGAAUUCUCGGGUGUCAAGG: 0.178
GGGAGUUCUACAGUCCGACGAUCUCGCCCUGGUGGCAUGCGGGGAGGAAGAGGUGGCCUCAUGGAUCGUGGUGGUCCCGGUGGAAUGUUCAGAGGUGGCCGUGGUGGAGACAGUGGAAUUCUCGGGUGUCAAGG: 0.733
GGGAGUUCUACAGUCCGACGAUCUGGCCCUGGUGGCAUGCGGGGAGGAAGAGGUGGCCUCAUGAAUCGUGGUGGUCCCGGUGGAAUGUUCAGAGGUGGCCGUGGUGGAGACAGUGGAAUUCUCGGGUGUCAAGG: 0.373

Sample 2
Target: Histone acetyltransferase KAT6A, both winged helices, GST fusion (KAT6A, Homo sapiens, UniProt Q92794, residues 1-181)
Method: protein binding microarray
Molecule type: double-stranded DNA, one strand shown
Matrix: in vitro
Tested at: not given
Notes: 8-mer, flanks averaged, mean of 2 arrays, mostly near background
Baseline: not given
Direction: higher = stronger binding
Quantity: E-score
Target sequence (chain): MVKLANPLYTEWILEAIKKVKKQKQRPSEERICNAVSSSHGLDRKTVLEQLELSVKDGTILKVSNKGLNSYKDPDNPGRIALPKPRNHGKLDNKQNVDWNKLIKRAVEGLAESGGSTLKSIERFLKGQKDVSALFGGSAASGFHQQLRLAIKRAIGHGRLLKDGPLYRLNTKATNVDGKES
CATCTGGC: -0.123
AGCAAAAT: -0.0963
AGGCGCGG: 0.302
ATCATAAC: -0.00664
GAGAACGA: -0.0589

Sample 3
Target: RNA binding protein fox-1 homolog 2, RRM domain, GST-SBP tag (RBFOX2, Homo sapiens, UniProt O43251-10, residues 100-194)
Method: RNA Bind-n-Seq
Molecule type: RNA
Matrix: in vitro
Tested at: 365 nM
Notes: natural RNA segment, single round, ends assumed
Baseline: no-protein control
Direction: higher = stronger binding
Quantity: RBNS enrichment (R)
Target sequence (chain): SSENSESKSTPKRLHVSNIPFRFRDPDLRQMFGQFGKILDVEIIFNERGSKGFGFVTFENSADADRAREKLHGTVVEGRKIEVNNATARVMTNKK
GGGAGUUCUACAGUCCGACGAUCUUCAAGCUUUAGCGUGCAUCAGAAUCACCUGUAGGGCUUGUUAAAACACUAAUUGCUGGGCCUCAACCCAAAAGCCCCCAAAGUGGCACUUCUGAGUUCCUGCUGAUGUUUGGAAUUCUCGGGUGCCAA: 0.253
GGGAGUUCUACAGUCCGACGAUCACACGGGACUACAGAUGGUGCCCUCUCAGGAGUUUUGGGGGAGAAUAGGAGUUACCCAUCAGGUUUCUCUUGGGAUUUUGUAAAUGGAGAGGACAGUUCUUAGUCCAAUAUGGAAUUCUCGGGUGCCAA: 0.495
GGGAGUUCUACAGUCCGACGAUCGCAUCUCUAGAGACAGAUACUAUCCAGCCAUCUGUCUGCCUUGUCUUUUGCAGUACUUCUCCAUGCCUUCCCUGCUACAAGUGUUUUUAGAUGUUAUUACUGUACUUUCCUGGAAUUCUCGGGUGCCAA: 1.04
GGGAGUUCUACAGUCCGACGAUCGGGGAGCACUGGCAGGGAGAGACAUUCUUGACUCCUCUCUUCCCUGGUGUGUUGUGAUCCAGGGAAUGAAAAGAAAUUUGACCCUGGAUUGGUUCUCUCCUUGGACUUAAUGGAAUUCUCGGGUGCCAA: 0.878

Further values, each from its own experiment
PhoQ, residues 284 288 289 292 302 303 NLGVHL
fold induction (PhoP, residues 12 14 15 18 19 LHHVQ (Escherichia coli, UniProt P23836); Sort-seq, item: YFP reporter; E. coli; PhoQ-PhoP variant library, added: 10 µM Mg2+; baseline: high Mg2+ state, higher = stronger signaling): 0.439
